Experimental data gathered from unrelated publications.
A part holds a random share of what one study measured. Changes are numbered by the printed parent chain.
Sequence of UniProt Q92918 (whole entry, looked up): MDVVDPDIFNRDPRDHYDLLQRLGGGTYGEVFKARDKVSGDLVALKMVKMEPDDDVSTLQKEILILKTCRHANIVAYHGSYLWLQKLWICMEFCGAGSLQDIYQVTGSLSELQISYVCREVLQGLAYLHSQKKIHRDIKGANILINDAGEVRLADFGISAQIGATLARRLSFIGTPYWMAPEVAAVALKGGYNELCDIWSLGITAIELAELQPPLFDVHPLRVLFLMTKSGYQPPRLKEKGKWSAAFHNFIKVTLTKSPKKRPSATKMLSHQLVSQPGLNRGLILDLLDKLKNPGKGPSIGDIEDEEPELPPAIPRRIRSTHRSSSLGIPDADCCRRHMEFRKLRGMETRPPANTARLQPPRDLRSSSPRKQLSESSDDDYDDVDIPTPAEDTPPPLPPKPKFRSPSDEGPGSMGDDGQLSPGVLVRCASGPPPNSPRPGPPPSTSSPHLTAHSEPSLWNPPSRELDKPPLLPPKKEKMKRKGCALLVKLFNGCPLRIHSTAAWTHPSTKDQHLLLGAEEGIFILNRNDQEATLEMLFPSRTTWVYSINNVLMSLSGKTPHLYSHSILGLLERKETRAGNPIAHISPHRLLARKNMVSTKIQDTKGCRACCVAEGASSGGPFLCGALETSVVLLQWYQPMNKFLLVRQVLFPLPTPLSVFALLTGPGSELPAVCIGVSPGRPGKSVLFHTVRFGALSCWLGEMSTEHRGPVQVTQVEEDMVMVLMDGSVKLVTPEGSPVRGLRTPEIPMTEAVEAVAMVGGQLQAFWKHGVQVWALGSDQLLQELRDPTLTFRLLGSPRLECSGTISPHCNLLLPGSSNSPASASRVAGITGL
Sequence of UniProt Q8TBX8 (whole entry, looked up): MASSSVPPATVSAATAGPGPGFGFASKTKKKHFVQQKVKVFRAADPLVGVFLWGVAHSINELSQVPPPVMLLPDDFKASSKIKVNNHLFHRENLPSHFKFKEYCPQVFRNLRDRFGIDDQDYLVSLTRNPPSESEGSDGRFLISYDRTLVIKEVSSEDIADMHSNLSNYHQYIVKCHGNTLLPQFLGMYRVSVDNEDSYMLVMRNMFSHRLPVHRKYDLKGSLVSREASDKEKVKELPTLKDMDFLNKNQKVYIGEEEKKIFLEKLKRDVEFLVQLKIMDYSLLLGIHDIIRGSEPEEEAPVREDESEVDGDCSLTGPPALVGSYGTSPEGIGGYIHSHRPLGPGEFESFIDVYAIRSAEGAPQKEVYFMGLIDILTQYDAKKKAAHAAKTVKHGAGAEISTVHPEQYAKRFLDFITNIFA
Sequence of UniProt P41743 (whole entry, looked up): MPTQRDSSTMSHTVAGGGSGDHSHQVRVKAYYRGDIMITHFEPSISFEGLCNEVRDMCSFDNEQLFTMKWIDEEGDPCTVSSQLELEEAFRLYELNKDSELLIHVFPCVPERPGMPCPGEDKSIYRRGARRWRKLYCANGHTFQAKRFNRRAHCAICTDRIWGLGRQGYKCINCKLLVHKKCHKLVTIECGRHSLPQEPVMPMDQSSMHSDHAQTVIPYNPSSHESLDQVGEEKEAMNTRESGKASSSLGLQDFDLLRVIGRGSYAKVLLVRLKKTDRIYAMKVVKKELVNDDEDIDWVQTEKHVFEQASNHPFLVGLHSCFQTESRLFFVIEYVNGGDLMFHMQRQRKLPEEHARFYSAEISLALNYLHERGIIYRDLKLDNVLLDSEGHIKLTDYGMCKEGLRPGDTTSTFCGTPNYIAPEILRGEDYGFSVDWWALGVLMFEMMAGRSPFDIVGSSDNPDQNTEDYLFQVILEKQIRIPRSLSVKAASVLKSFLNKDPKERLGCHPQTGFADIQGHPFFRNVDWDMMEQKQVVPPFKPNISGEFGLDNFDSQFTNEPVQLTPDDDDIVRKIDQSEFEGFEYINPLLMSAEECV
Sequence of UniProt Q9NRM7 (whole entry, looked up): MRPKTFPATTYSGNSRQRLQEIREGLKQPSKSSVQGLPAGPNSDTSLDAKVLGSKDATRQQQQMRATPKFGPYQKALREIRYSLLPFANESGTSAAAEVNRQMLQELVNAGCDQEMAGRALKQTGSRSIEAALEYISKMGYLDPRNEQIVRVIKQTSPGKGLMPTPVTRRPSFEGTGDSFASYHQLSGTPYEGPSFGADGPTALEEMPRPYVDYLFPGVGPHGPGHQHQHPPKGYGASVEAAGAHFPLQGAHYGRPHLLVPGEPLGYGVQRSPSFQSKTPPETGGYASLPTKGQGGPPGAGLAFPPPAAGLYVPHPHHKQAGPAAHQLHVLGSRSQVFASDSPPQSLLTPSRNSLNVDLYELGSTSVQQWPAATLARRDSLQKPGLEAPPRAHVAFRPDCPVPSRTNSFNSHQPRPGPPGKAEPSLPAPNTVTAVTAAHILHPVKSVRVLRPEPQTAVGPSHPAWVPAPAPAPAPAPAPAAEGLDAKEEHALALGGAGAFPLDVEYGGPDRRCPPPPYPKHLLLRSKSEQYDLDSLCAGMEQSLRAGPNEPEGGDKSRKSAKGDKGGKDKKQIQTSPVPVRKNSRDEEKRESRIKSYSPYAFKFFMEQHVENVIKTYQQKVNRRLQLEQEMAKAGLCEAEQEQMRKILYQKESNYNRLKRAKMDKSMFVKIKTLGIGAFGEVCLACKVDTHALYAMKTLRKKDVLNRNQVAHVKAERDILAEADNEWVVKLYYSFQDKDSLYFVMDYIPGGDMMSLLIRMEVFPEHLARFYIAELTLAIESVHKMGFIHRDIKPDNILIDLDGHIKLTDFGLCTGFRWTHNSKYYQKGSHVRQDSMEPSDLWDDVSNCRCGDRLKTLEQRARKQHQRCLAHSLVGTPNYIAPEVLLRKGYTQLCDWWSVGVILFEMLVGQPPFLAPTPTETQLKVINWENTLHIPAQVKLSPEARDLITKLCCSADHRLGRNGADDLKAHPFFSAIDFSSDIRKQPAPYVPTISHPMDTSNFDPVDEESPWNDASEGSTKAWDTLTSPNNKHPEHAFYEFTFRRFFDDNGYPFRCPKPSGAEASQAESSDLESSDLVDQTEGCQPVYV
Sequence of UniProt P07332 (whole entry, looked up): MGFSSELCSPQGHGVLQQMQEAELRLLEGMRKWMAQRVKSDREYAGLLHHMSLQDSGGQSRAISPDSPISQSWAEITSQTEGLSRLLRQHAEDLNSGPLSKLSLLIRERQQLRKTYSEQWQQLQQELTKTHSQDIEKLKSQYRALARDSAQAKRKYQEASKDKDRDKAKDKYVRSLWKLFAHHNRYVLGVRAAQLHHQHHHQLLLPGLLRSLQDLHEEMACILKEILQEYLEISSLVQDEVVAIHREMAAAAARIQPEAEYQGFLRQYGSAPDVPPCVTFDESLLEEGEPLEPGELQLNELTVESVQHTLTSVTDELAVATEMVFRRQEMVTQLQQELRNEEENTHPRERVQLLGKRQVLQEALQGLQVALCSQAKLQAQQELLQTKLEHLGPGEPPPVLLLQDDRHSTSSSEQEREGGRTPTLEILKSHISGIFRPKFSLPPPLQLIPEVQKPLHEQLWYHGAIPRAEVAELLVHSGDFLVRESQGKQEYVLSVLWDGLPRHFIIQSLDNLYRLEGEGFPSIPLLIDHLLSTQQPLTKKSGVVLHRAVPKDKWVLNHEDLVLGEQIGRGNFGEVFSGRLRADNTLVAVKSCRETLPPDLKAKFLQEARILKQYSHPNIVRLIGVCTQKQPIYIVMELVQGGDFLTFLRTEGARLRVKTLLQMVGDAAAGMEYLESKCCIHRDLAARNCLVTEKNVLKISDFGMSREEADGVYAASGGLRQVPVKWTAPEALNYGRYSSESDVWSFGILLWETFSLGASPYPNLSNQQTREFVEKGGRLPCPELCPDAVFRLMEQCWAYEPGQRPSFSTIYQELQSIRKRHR
Sequence of UniProt Q8IVW4 (whole entry, looked up): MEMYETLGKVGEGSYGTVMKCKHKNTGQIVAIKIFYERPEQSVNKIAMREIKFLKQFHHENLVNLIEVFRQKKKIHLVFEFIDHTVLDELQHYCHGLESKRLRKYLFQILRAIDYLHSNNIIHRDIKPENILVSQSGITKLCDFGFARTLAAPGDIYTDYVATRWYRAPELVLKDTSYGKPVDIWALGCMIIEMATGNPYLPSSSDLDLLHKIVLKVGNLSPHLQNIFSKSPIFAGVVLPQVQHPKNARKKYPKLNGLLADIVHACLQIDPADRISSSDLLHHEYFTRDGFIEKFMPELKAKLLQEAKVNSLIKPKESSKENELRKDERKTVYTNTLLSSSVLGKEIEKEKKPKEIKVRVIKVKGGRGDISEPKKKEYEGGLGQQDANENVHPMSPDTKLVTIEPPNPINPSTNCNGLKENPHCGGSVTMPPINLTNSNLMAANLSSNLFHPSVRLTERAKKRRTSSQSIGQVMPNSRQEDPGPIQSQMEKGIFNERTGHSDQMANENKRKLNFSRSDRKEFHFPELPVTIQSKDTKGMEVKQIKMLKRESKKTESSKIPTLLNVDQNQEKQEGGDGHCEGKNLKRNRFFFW
Sequence of UniProt O60285 (whole entry, looked up): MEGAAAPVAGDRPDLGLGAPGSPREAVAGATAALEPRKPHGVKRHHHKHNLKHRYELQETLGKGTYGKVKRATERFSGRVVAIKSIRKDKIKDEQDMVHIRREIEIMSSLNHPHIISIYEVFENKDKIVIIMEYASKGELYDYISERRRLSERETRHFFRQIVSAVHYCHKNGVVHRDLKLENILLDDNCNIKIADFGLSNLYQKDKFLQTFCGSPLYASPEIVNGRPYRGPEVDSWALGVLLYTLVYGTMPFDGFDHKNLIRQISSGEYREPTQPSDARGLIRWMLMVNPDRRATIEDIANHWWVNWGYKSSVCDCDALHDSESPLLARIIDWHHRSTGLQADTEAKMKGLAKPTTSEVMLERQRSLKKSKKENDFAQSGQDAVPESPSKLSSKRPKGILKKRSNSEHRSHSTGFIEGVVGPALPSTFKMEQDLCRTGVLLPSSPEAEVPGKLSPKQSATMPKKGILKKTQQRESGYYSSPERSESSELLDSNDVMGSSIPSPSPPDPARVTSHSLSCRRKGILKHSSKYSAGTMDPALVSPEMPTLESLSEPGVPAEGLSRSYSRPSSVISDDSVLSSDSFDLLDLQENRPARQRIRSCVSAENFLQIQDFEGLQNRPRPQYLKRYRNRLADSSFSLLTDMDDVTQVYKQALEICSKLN

Block 1
Target: CCNA1, cyclin fold, Cln2 fusion (human)
Method: yeast growth competition, sequencing
Medium: yeast
Setting: strong parent motif
Relative to: not given
Direction: higher = stronger binding
Starting sequence: viral docking peptide; YKVKRRLVFGADD; partner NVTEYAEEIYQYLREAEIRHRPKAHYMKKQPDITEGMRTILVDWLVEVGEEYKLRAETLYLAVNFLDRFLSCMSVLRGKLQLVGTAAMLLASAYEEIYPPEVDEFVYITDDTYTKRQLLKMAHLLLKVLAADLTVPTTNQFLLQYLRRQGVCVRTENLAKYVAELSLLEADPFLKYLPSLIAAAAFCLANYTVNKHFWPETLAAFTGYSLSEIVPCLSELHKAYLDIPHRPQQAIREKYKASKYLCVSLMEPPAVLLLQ
Change | normalised enrichment score
V8A | 0.751
V8W | 0.395
F9D | 0.613
K4T | 0.182
F9P | 0.294
V3E | -0.0222
F9Q | 0.334
A11F | 1.11

Block 2
Target: HLA class I histocompatibility antigen, C alpha chain, allele C*04:01 (Homo sapiens, UniProt P10321)
Observed: peptide-MHC binding
Form: peptide
Tested at: concentration not given
Molecule | binding
FVDVGVSAL | inactive
MRYFIGQPL | inactive
YRATYSMAL | inactive
MPMSMPIPM | inactive
TFMDHVLRY | inactive
VGYYTFHPK | inactive
GLIPQWVTL | inactive
RRRFVQNAL | inactive

Block 3
Compound: Cn1cncc1[C@@](O)(COc1ccc(C#N)cc1-c1ccc(OC(F)(F)F)cc1)c1ccc(C#N)cc1
Method: competition with immobilised ligand
Tested at: 1 µM
target | observed | remaining binding [%]
PRKCE (Homo sapiens, UniProt Q02156) | cell-free assay | 100
Tyrosine-protein kinase ABL1, phosphorylated (ABL1, Homo sapiens, UniProt P00519, M351T) | cell-free assay | 6.2
CDKL3 (Homo sapiens, UniProt Q8IVW4) | binding | 81
PIP4K2C (Homo sapiens, UniProt Q8TBX8) | cell-free assay | 96
CDK11B (Homo sapiens, UniProt P21127) | cell-free assay | 92
KIT (Homo sapiens, UniProt P10721, V559D/V654A) | cell-free assay | 100
EPHB1 (Homo sapiens, UniProt P54762) | cell-free assay | 100
PRKCI (Homo sapiens, UniProt P41743) | cell-free assay | 100
MAP4K1 (Homo sapiens, UniProt Q92918) | cell-free assay | 100
PIK3CB (Homo sapiens, UniProt P42338) | cell-free assay | 75
LATS2 (Homo sapiens, UniProt Q9NRM7) | cell-free assay | 100
NUAK1 (Homo sapiens, UniProt O60285) | cell-free assay | 100
TLK2 (Homo sapiens, UniProt Q86UE8) | cell-free assay | 97
SGK3 (Homo sapiens, UniProt Q96BR1) | cell-free assay | 100
MAP3K12 (Homo sapiens, UniProt Q12852) | cell-free assay | 100
PI4KB (Homo sapiens, UniProt Q9UBF8) | cell-free assay | 80
ANKK1 (Homo sapiens, UniProt Q8NFD2) | cell-free assay | 100

Mixed results
Compound | target | observed | mode | tested at | relative to | quantity | result
O=C1NC(=O)c2c1c1c3ccccc3n3c1c1c2c2ccccc2n1[C@H]1CC[C@@H]3O1 | Tyrosine-protein kinase Fes/Fps (FES, Homo sapiens, UniProt P07332) | enzyme activity | inhibitor | 0.5 µM | control | remaining activity | 42.1%

For quick reference, copied from above (block 3):
target | observed | remaining binding [%]
CDKL3 (Homo sapiens, UniProt Q8IVW4) | binding | 81
PIP4K2C (Homo sapiens, UniProt Q8TBX8) | cell-free assay | 96
CDK11B (Homo sapiens, UniProt P21127) | cell-free assay | 92
